Measurements collected from several papers.
Each numbered part is a random draw from the data of one study; scales do not carry over between parts. Positions count from the first letter of the parent shown.

Series 1
Target: Prothrombin, mature alpha-thrombin (F2, Homo sapiens, UniProt P00734)
Technique: aptamer microarray, sandwich
Molecule type: DNA with 2'F-ANA
Sample: in vitro
Tested at: 200 nM
Setting: whole 15-mer aptamer, many near background
Together with: Cy3 exosite-II aptamer, 400 nM
Direction: higher = stronger binding
Strand: GGTTGGTGTGGTTGG
| Modification | mean fluorescence intensity [a.u.] |
| --- | --- |
| 2'F-ANA at 1 3 4 9 11 13 14 | 60.2 |
| 2'F-ANA at 1 3 4 7 9 14 15 | 62.1 |
| 2'F-ANA at 4 5 7 12 13 14 | 45.7 |
| 2'F-ANA at 3 5 6 7 9 11 12 15 | 186 |
| 2'F-ANA at 1 2 4 7 10 14 | 43.1 |
| 2'F-ANA at 4 5 6 7 9 10 14 | 47.7 |
| 2'F-ANA at 1 3 5 6 7 8 11 13 15 | 53.2 |
| 2'F-ANA at 1 2 4 6 7 8 10 11 12 15 | 81.5 |

Series 2
Target: CCNE2, cyclin fold, Cln2 fusion (human)
Technique: yeast growth competition, sequencing
Sample: yeast
Setting: weak parent motif
Relative to: not given
Direction: higher = stronger binding
Starting sequence: PKMYT1 docking peptide (human); SFEPRNLLSLFED; partner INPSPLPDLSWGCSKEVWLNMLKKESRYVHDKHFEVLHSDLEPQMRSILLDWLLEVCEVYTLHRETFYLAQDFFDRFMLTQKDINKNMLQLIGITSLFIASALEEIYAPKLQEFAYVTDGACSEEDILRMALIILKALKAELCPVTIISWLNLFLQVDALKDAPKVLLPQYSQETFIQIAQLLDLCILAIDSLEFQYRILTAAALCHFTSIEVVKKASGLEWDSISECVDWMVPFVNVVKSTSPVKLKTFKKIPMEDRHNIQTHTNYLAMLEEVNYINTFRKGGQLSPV
| Substitution | normalised enrichment score |
| --- | --- |
| SFEPRNLGSLFED [L8G] | -0.757 |
| SFKPRNLLSLFED [E3K] | 1.01 |
| SFEPRNLLALFED [S9A] | 0.508 |
| SFEPHNLLSLFED [R5H] | -0.993 |
| SFEPRNLLTLFED [S9T] | 0.117 |
| SFEPRNLLSLFET [D13T] | -0.4 |
| SFEPRNLLCLFED [S9C] | -0.0456 |
| SFYPRNLLSLFED [E3Y] | 0.473 |

Series 3
SMILES: O=C(NCc1ncc(C(F)(F)F)cc1Cl)c1ccc2c(c1)C1(CCS(=O)(=O)CC1)[C@H](C1CC1)N2S(=O)(=O)c1ccc(F)cc1
Effect on: ligand displacement
Tested at: 10 µM
| target | inhibition |
| --- | --- |
| Sigma intracellular receptor 2 (TMEM97, Homo sapiens, UniProt Q5BJF2) | 74.9% |
| Histamine H4 receptor (HRH4, Homo sapiens, UniProt Q9H3N8) | -9.53% |
| Histamine H1 receptor (HRH1, Homo sapiens, UniProt P35367) | 24.6% |
| Alpha-1D adrenergic receptor (ADRA1D, Homo sapiens, UniProt P25100) | 4.13% |
| 5-hydroxytryptamine receptor 7 (HTR7, Homo sapiens, UniProt P34969) | -8.16% |
| Alpha-1B adrenergic receptor (ADRA1B, Homo sapiens, UniProt P35368) | -4.46% |
| Muscarinic acetylcholine receptor M5 (CHRM5, Homo sapiens, UniProt P08912) | -6.43% |

Series 4
Target: Protein-tyrosine kinase 2-beta (PTK2B, Homo sapiens, UniProt Q14289)
Effect on: enzyme activity
Mode: inhibitor
Tested at: 0.5 µM
Relative to: control
| Structure (SMILES) | remaining activity [%] |
| --- | --- |
| CO[C@H]1C[C@@H]2CC[C@@H](C)[C@@](O)(O2)C(=O)C(=O)N2CCCC[C@H]2C(=O)O[C@H]([C@H](C)C[C@@H]2CC[C@@H](O)[C@H](OC)C2)CC(=O)[C@H](C)/C=C(\C)[C@@H](O)[C@@H](OC)C(=O)[C@H](C)C[C@H](C)/C=C/C=C/C=C/1C | 94.2 |
| C#Cc1cccc(Nc2ncnc3cc(OCCOC)c(OCCOC)cc23)c1 | 97.6 |
| COc1ccc(CNC(=O)Nc2ncc([N+](=O)[O-])s2)cc1 | 83.1 |
| O=C(CCCc1ccc(-c2ccccc2F)cc1)Nc1ccc(O)cc1 | 98.8 |
| Cc1ccc(NC(=O)c2ccc(CN3CCN(C)CC3)cc2)cc1Nc1nc(-c2cccnc2)cs1 | 98.9 |
| Cc1ccc(Nc2nccc(N(C)c3ccc4c(C)n(C)nc4c3)n2)cc1S(N)(=O)=O | 92 |
| Cn1sc(=O)n(Cc2ccccc2)c1=O | 91 |
| CNC(=O)c1cc(Oc2ccc(NC(=O)Nc3ccc(Cl)c(C(F)(F)F)c3)cc2)ccn1 | 101 |
| Nc1[nH]nc2nc3ccccc3nc12 | 92 |
| CC(C)[C@H](CO)Nc1nc(Nc2cc(N)cc(Cl)c2)c2ncn(C(C)C)c2n1 | 63.6 |
| COc1ccc(OC)c2c(=S)c3ccccc3[nH]c12 | 92.7 |
| Nc1ccc2ncnc(NCCc3ccc(Oc4ccccc4)cc3)c2c1 | 95 |
| CCOC(=O)c1c(C)[nH]c(/C=C2\C(=O)Nc3ccccc32)c1C | 80.6 |
| O=c1c2ccccc2[nH]c(=S)n1CCN1CCC(=C(c2ccc(F)cc2)c2ccc(F)cc2)CC1 | 98.5 |
| Cc1cccc(-c2[nH]c(C(C)(C)C)nc2-c2ccc3c(c2)OCO3)n1 | 91.3 |
